Results gathered from unrelated publications.

| SMILES | organism | test | test system | setting | MIC |
| --- | --- | --- | --- | --- | --- |
| O=c1c2ccccc2sn1-c1cc(Br)cc(Br)c1 | Candida krusei | growth, broth dilution | ATCC 6258 | MIC-0 | 6.25 µg/mL |
| CC[C@@H](C)[C@@H](NC(=O)[C@@H](C)NC(=O)[C@@H](CCCCN)NC(=O)[C@@H](CC(C)C)NC(=O)[C@@H](CC(C)C)NC(=O)[C@H](NC(=O)[C@@H](CCCCN)NC(=O)[C@@H](CC(C)C)NC(=O)[C@@H](C)NC(=O)[C@@H](CCCCN)NC(=O)[C@@H](CCCCN)NC(=O)[C@@H](CCCCN)NC(=O)[C@@H](C)NC(=O)[C@@H](CCCCN)NC(=O)[C@@H](CO)NC(=O)[C@@H](Cc1ccccc1)NC(=O)[C@H](NC(=O)[C@@H](CCCCN)NC(=O)[C@@H](CC(C)C)NC(=O)[C@@H](Cc1ccccc1)NC(=O)[C@@H](CO)NC(=O)[C@@H](CCCCN)NC(=O)[C@@H](Cc1c[nH]c2ccccc12)NC(=O)[C@@H](CCCCN)NC(C)=O)[C@H](C)O)[C@H](C)O)C(=O)N[C@H](CO)C(=O)N[C@H](CCCCN)C(N)=O | Acinetobacter baumannii | broth microdilution | ATCC 19606 | 24 h, 37 °C | 1.3 µM |
| COc1cccc(C2Nc3ccccc3C3=[O+][Cu-2]4([Cl])[O]c5c(cccc5OC)C=[N+]4N32)c1O (stereo not shown) | Mycobacterium kansasii | broth microdilution | DSM 44162 | 7 days | 256 µg/mL |
| CC[C@@H](C)[C@@H](NC(=O)[C@@H](C)NC(=O)[C@@H](CCCCN)NC(=O)[C@@H](CC(C)C)NC(=O)[C@@H](C)NC(=O)[C@H](NC(=O)[C@@H](CCCCN)NC(=O)[C@@H](CC(C)C)NC(=O)[C@H](NC(=O)[C@@H](CCCCN)NC(=O)[C@@H](CCCCN)NC(=O)[C@@H](CCCCN)NC(=O)[C@@H](C)NC(=O)[C@@H](CCCCN)NC(=O)[C@@H](CO)NC(=O)[C@@H](Cc1ccccc1)NC(=O)[C@H](NC(=O)[C@@H](CCCCN)NC(=O)[C@@H](CC(C)C)NC(=O)[C@@H](Cc1ccccc1)NC(=O)[C@@H](CO)NC(=O)[C@@H](CCCCN)NC(=O)[C@@H](Cc1c[nH]c2ccccc12)NC(=O)[C@@H](CCCCN)NC(C)=O)[C@H](C)O)C(C)C)[C@H](C)O)C(=O)N[C@H](CO)C(=O)N[C@H](CCCCN)C(N)=O | Acinetobacter baumannii |  | 985, Mueller-Hinton broth | 24 h, 37 °C | 0.7 µM |
| N#Cc1ccc2cccc(O)c2n1 | Bacillus cereus | microbial growth, agar dilution |  |  | > 1500 µM |
| CCCCCCCCCC1CC2CCC3CC(CCCCCCCCC)NC(=N1)N23 (stereo not shown) | Candida krusei | fungal growth | ATCC 6258 |  | 2.99 µM |
| COc1cc(OC)c2c(c1)C(=O)c1cc3oc(=O)cc(-c4ccc(Cl)cc4)c3c(O)c1C2=O | Bacillus cereus | microbial growth |  |  | 64 µg/mL |
| Oc1ccccc1C1Nc2ccccc2C2=[O+][Cu-2]3([Cl])[O]c4ccccc4C=[N+]3N21 (stereo not shown) | Mycobacterium kansasii | broth microdilution | DSM 44162 | 7 days | 128 µg/mL |
| Oc1c(Br)ccc2cccnc12 | Salmonella enterica | microbial growth, agar dilution | ENTERITIDIS |  | 35.7 µM |
| CC[C@@H](C)[C@@H](NC(=O)[C@@H](C)NC(=O)[C@@H](CCCCN)NC(=O)[C@@H](CC(C)C)NC(=O)[C@@H](CC(C)C)NC(=O)[C@H](NC(=O)[C@@H](CCCCN)NC(=O)[C@@H](CC(C)C)NC(=O)[C@@H](CCCCN)NC(=O)[C@@H](CCCCN)NC(=O)[C@@H](CCCCN)NC(=O)[C@@H](CCCCN)NC(=O)[C@@H](C)NC(=O)[C@@H](CCCCN)NC(=O)[C@@H](CO)NC(=O)[C@@H](Cc1ccccc1)NC(=O)[C@H](NC(=O)[C@@H](CCCCN)NC(=O)[C@@H](CC(C)C)NC(=O)[C@@H](Cc1ccccc1)NC(=O)[C@@H](CO)NC(=O)[C@@H](CCCCN)NC(=O)[C@@H](Cc1c[nH]c2ccccc12)NC(=O)[C@@H](CCCCN)NC(C)=O)[C@H](C)O)[C@H](C)O)C(=O)N[C@H](CO)C(=O)N[C@H](CCCCN)C(N)=O | Acinetobacter baumannii |  | 884, Mueller-Hinton broth | 24 h, 37 °C | 0.6 µM |
| COC1C=COC2(C)Oc3c(C)c(O)c4c(c3C2=O)C2=NC3(CCN(CC(C)C)CC3)NC2=C(NC(=O)C(C)=CC=CC(C)C(O)C(C)C(O)C(C)C(OC(=O)Nc2cccnn2)C1C)C4=O (stereo not shown) | Mycobacteroides abscessus | microbial growth | ATCC19977 |  | 0.032 µM |
| Oc1c(Br)cc(Br)c2nc3c(C(F)(F)F)cc(C(F)(F)F)cc3nc12 | Staphylococcus aureus | broth microdilution | MRSA 1707 | 16 h, 37 °C | 0.05 µM |
| CC(/C=C/C(O)=C1/C(=O)CNC1=O)=C\[C@@H](C)[C@H]1O[C@@]2(C)O[C@H](C[C@@H]3O[C@@]32CO)[C@@H]1C | Bacillus cereus |  |  |  | 50 µM |
| CC(=O)N[C@H](CCCCN)C(=O)N[C@H](CC(C)C)C(=O)N[C@H](CCCCN)C(=O)N[C@H](CO)C(=O)N[C@H](CC(C)C)C(=O)N[C@H](CC(C)C)C(=O)N[C@H](CCCCN)C(=O)N[C@@H](C(=O)N[C@H](CC(C)C)C(=O)N[C@H](CO)C(=O)N[C@H](CCCCN)C(=O)N[C@H](C)C(=O)N[C@H](CCCCN)C(=O)N[C@H](CCCCN)C(=O)N[C@H](CCCCN)C(=O)N[C@H](CC(C)C)C(=O)N[C@H](CC(C)C)C(=O)N[C@H](CCCCN)C(=O)N[C@@H](C(=O)N[C@H](C)C(=O)N[C@H](CC(C)C)C(=O)N[C@H](CCCCN)C(=O)N[C@H](C)C(=O)N[C@H](CC(C)C)C(=O)N[C@H](CO)C(=O)N[C@H](CCCCN)C(N)=O)[C@H](C)O)[C@H](C)O | Acinetobacter baumannii |  | 964, Mueller-Hinton broth | 24 h, 37 °C | 0.7 µM |
| Oc1c(Cl)cc(Cl)c2cccnc12 | Salmonella enterica | microbial growth, agar dilution | ATCC13311 TYPHIMURIUM |  | 37.4 µM |
| CCCCCCCCCCCCCCCCCCCCCCSCC1OC(OC2C(N)CC(N)C(OC3OC(CN)C(O)CC3N)C2O)C(O)C(N)C1O (stereo not shown) | Salmonella enterica |  | ATCC 14028 |  | > 150 µg/mL |
| CC[C@@H](C)[C@@H](NC(=O)[C@@H](C)N)C(=O)N[C@H](CCCCN)C(=O)N[C@@H](C(=O)N[C@H](CCCNC(=N)N)C(=O)N[C@H](CCCCN)C(=O)N[C@H](CC(C)C)C(=O)N[C@H](Cc1ccccc1)C(=O)N[C@H](CCCCN)C(=O)N[C@H](CCCCN)C(=O)N[C@H](CC(C)C)C(=O)N[C@H](CC(C)C)C(=O)N[C@H](CCCNC(=N)N)C(N)=O)[C@H](C)CC | Escherichia coli | broth microdilution checkerboard | ATCC 25922, LB medium | with: gentamicin | 6.25 µg/mL |
| CC[C@@H](C)[C@@H](NC(=O)[C@@H](C)NC(=O)[C@@H](CCCCN)NC(=O)[C@@H](CC(C)C)NC(=O)[C@@H](C)NC(=O)[C@H](NC(=O)[C@@H](Cc1c[nH]cn1)NC(=O)[C@@H](CC(C)C)NC(=O)[C@H](NC(=O)[C@H](NC(=O)[C@@H](CCCCN)NC(=O)[C@H](NC(=O)[C@@H](C)NC(=O)[C@@H](CO)NC(=O)[C@@H](CCCCN)NC(=O)[C@@H](Cc1ccccc1)NC(=O)[C@H](NC(=O)[C@@H](CCCCN)NC(=O)[C@@H](CC(C)C)NC(=O)[C@@H](Cc1ccccc1)NC(=O)[C@@H](CO)NC(=O)[C@@H](CCCCN)NC(=O)[C@@H](Cc1c[nH]c2ccccc12)NC(=O)[C@@H](CCCCN)NC(C)=O)[C@H](C)O)C(C)C)[C@H](C)O)C(C)C)[C@H](C)O)C(=O)N[C@H](CO)C(=O)N[C@H](CO)C(N)=O | Acinetobacter baumannii |  | 1012, Mueller-Hinton broth | 24 h, 37 °C | 0.7 µM |
| Cc1c(CN(C)C(=O)/C=C/c2cnc3c(c2)CC(N)C(=O)N3)oc2ccccc12 (stereo not shown) | Klebsiella pneumoniae, Acinetobacter baumannii |  | mouse model strains |  | 16 µg/mL |

For quick reference, copied from above:
| SMILES | organism | test | test system | setting | MIC |
| --- | --- | --- | --- | --- | --- |
| Oc1c(Br)ccc2cccnc12 | Salmonella enterica | microbial growth, agar dilution | ENTERITIDIS |  | 35.7 µM |
| CC[C@@H](C)[C@@H](NC(=O)[C@@H](C)NC(=O)[C@@H](CCCCN)NC(=O)[C@@H](CC(C)C)NC(=O)[C@@H](CC(C)C)NC(=O)[C@H](NC(=O)[C@@H](CCCCN)NC(=O)[C@@H](CC(C)C)NC(=O)[C@@H](CCCCN)NC(=O)[C@@H](CCCCN)NC(=O)[C@@H](CCCCN)NC(=O)[C@@H](CCCCN)NC(=O)[C@@H](C)NC(=O)[C@@H](CCCCN)NC(=O)[C@@H](CO)NC(=O)[C@@H](Cc1ccccc1)NC(=O)[C@H](NC(=O)[C@@H](CCCCN)NC(=O)[C@@H](CC(C)C)NC(=O)[C@@H](Cc1ccccc1)NC(=O)[C@@H](CO)NC(=O)[C@@H](CCCCN)NC(=O)[C@@H](Cc1c[nH]c2ccccc12)NC(=O)[C@@H](CCCCN)NC(C)=O)[C@H](C)O)[C@H](C)O)C(=O)N[C@H](CO)C(=O)N[C@H](CCCCN)C(N)=O | Acinetobacter baumannii |  | 884, Mueller-Hinton broth | 24 h, 37 °C | 0.6 µM |
| COC1C=COC2(C)Oc3c(C)c(O)c4c(c3C2=O)C2=NC3(CCN(CC(C)C)CC3)NC2=C(NC(=O)C(C)=CC=CC(C)C(O)C(C)C(O)C(C)C(OC(=O)Nc2cccnn2)C1C)C4=O (stereo not shown) | Mycobacteroides abscessus | microbial growth | ATCC19977 |  | 0.032 µM |
